Measurements collected from several papers.
Lines come from different studies, so protocols differ. Values joined by “and” are separate records of one study, mostly repeats; a detail may differ. ± marks the error that the study gave.

Compound | test | system | conditions | how to read | measurement | result
O=C(Nc1cnccc1-c1ccc([18F])nc1)c1ccnc(NC(=O)C2CC2)c1 | ex vivo gamma counting | FVB/NJ mice, both sexes, thalamus | intravenous, 120 min, mean, P-gp inhibitor pretreatment, with: tariquidar 15 mg/kg iv |  | SUV | 0.076
CC[C@H](C)[C@@H]1NC(=O)[C@H](Cc2ccc(O)cc2)NC(=O)CCCSC[C@@H](C(=O)N(CC(=O)N[C@@H](CC(C)C)C(=O)NCC(N)=O)Cc2ccc(F)cc2)NC(=O)[C@H](CC(N)=O)NC(=O)[C@H](CCC(N)=O)NC1=O |  | human | intranasal, 50 µg single dose |  | severe adverse events | 0%
O=C(c1ccc(C23CC(S(F)(F)(F)(F)F)(CO2)C3)cc1)N1CCN(c2ncccn2)CC1 | metabolic stability | rat, liver microsomes |  |  | microsomal CLint | 805 µL/min/mg
CCCCN1C(=O)c2cccc3c(NCCCCCCN4CCOCC4)ccc(c23)C1=O |  | DMF |  |  | fluorescence quantum yield | 1
O=C1C2CC3CC1CC(C(=O)N1CCN(c4ccc([N+](=O)[O-])c5ncccc45)CC1)(C3)C2 |  | male ICR mouse, plasma | oral, 5 mg/kg |  | CL/F | 2650 mL/min/kg
CN(Cc1ccccc1)C(=O)CN1CCN(CC(=O)[O-])CCN(CC(=O)N(C)Cc2ccccc2)CC1.[44Sc+3] |  | mouse, blood | intravenous, 1 h |  | tracer uptake | 1.45 %ID/g
COc1cccc(OC)c1-c1cc(C(=O)NC2(C(=O)O)C3CC4CC(C3)CC2C4)nn1-c1ccc(C(=O)N(C)CCOCCN(C)C(=O)[C@H](CCCCNC(=O)[C@H](CC(C)C)NC(=O)C2OC2C(=O)O)NC(=O)CN2CCN(CC(=O)[O-])CCN(CC(=O)[O-])CCN(CC(=O)[O-])CC2)cc1C(C)C.[177Lu+3] (mixture of isomers) |  | mouse, HT-29 xenograft, spleen | 24 h post injection |  | tissue uptake | 0.81 %ID/g
CCC1CNC(CC)CN(C(C(=O)[O-])c2ccc(C(=O)[O-])cc2)C(CC)CN(CC(=O)[O-])C(CC)CN1.[Mn+2] (stereo not drawn) | ICP-MS | BALB/c mouse, spleen | intravenous, 0.05 mmol/kg, 30 min, without anaesthesia |  | Mn content | 0.42 ± 0.06 µg/g
C=CC(=O)Nc1cc(Nc2nccc(-c3c[nH]c4ccccc34)n2)c(OC)cc1N(C)CCN(C)C | storage stability | human dried blood spot | 30 d, on ice, MQC level |  | recovery | 58.1%
CC[C@H](C)[C@H](NC(=O)[C@H](CCC(N)=O)NC(=O)[C@@H](NC(=O)[C@@H]1CCCN1[C@@H]1CN(C(=O)[C@H](CCCCN)NC(=O)[C@H](CC(N)=O)NC(=O)[C@@H](NC(=O)[C@@H](NC(=O)[C@H](CCC(N)=O)NC(=O)[C@@H](N)C(C)C)[C@@H](C)CC)[C@@H](C)CC)CC[C@H]1NS(=O)(=O)c1ccc(C)cc1)C(C)C)C(=O)N[C@H](C(=O)N[C@@H](Cc1ccc(O)cc1)C(=O)N[C@@H](CCCCN)C(N)=O)C(C)C | circular dichroism | methanol | 125 µM, 20 °C |  | random coil content | 37%
O=C(c1ccccc1)N1C(c2ccc(OCC3CCN(CCCF)C3)cc2)c2ccc(O)cc2CC12CC2 (stereo not drawn) |  | C57BL/6J mouse, plasma | intraperitoneal, 25 mg/kg |  | AUC(0-inf) | 8220 ng·h/mL
Cc1cc(-c2ccc(C(=O)[C@@H]3CCCC[C@H]3C(=O)Nc3cnn4c3C(=O)NCC4)cc2)[nH]n1 |  | human, urine | oral, 200 mg, 120-144 h | baseline: dose | radioactivity recovery per interval | < 0.01% and 0.01% and 0.05%
CCCCN1C(=O)c2cccc3c(NCCCCN4CCOCC4)ccc(c23)C1=O |  | acetonitrile |  |  | fluorescence lifetime | 10 ns
N#C[C@@H]1CCCN1C(=O)CNC(=O)c1ccnc2ccc(OCCCN3CCN(C(=O)CCc4ccc5c(c4)CN4CCN(Cc6cc(CCC(=O)O)ccc6O)CC(=O)[O][Al-]([18F])([O]C(=O)C4)[O]5)CC3)cc12 (stereo partly drawn) |  | BALB/c nude mice, U-87 MG tumour | 120 min post-injection | baseline: tumour over blood | tumour-to-organ ratio | 10.6 ± 0.78
CC1(C)C(=CC=C2CCCC(C=CC3=[N+](CCC[N+](C)(C)C)c4ccc(S(=O)(=O)O)cc4C3(C)C)=C2SCCOCCOCCC(=O)O)N(CCC[N+](C)(C)C)c2ccc(S(=O)(=O)O)cc21 |  | PBS with FBS |  |  | quenching onset concentration | 5 µM
COc1ccc([C@@H]2CC(=O)c3c(O)cc(O[C@@H]4O[C@H](CO)[C@@H](O)[C@H](O)[C@H]4O[C@@H]4O[C@@H](C)[C@H](O)[C@@H](O)[C@H]4O)cc3O2)cc1O |  | Sprague-Dawley rat, male, obese, plasma | intravenous, 4 mg/kg |  | AUC(0-t) | 39.7 ± 5.2 ng·h/mL
Cc1nn(-c2nc3c(F)cc(F)cc3s2)c(O)c1C(c1ccc(C(F)(F)F)cc1)c1c(C)nn(-c2nc3c(F)cc(F)cc3s2)c1O |  | ICR mouse, plasma | oral, 50 mg/kg |  | AUC(0-inf) per dose | 7720 kg·ng·h/mL/mg and 7670 kg·ng·h/mL/mg and 7080 kg·ng·h/mL/mg
O=C([O-])CN1CCN(CC(=O)[O-])CCN(CC(=O)[O-])CC1.[44Sc+3] |  | mouse, heart | intravenous, 1 h |  | tracer uptake | 0.1 %ID/g
CC(=O)N([O-])CCCCCNC(=O)CCC(=O)N([O-])CCCCCNC(=O)CCC(=O)N([O-])CCCCCN.[89Zr+4] | radio-TLC | aqueous buffer | 3 d, pH 7.2, 37 °C, 89Zr-labelled complex, with: NiCl2 10-fold excess |  | intact complex | 98.7 ± 1.3%
O=C([O-])CN1CCN(CC(=O)[O-])CCN(Cc2cccc(C(=O)[O-])n2)CC1.[44Sc+3] |  | mouse, kidney | intravenous, 1 h |  | tracer uptake | 3.48 %ID/g

Compound | test | system | conditions | how to read | measurement | result
CC(C)(O)c1ccc(N2Cc3c(ccnc3-c3ccc(F)cc3OCC(F)(F)F)C2=O)cc1 |  | male C57BL/6 mouse, brain | oral, 300 mg/kg, 6 h |  | concentration | 16200 ng/g
COc1cc2ncnc(Oc3ccc(Nc4nccc5[nH]cc(-c6ccc(F)cc6)c(=O)c45)cc3F)c2cc1OC |  | male cynomolgus monkey, plasma | intravenous, 1.5 mg/kg |  | Vd | 0.8 L/kg
O=C1NC2(CC2)COc2ncc(F)cc2[C@H]2COCCN2c2ccn3ncc1c3n2 | bone marrow micronucleus test | NIH mice, female | oral, 60 mg/kg/day, 3 days |  | micronucleus rate | 0.65 ± 0.29 ‰
N#C[C@@H]1CCCN1C(=O)CNC(=O)c1ccnc2ccc(OCCCN3CCN(C(=O)CCc4ccc(O)c(CN5CCN6CC(=O)[O][Al-]([18F])([O]C(=O)C5)[O]c5ccc(CCC(=O)N7CCN(CCCOc8ccc9nccc(C(=O)NCC(=O)N%10CCC[C@H]%10C#N)c9c8)CC7)cc5C6)c4)CC3)cc12 (stereo partly drawn) | radio-TLC | CD-1 mice, plasma | intravenous, 10 min post-injection |  | radiochemical purity | 95.4 ± 1%
CN([O-])C(=O)CN1CCN(CC(=O)N(C)[O-])CCN(CC(=O)N(C)[O-])CC1.[89Zr+4] | radio-TLC | human serum | 2 days, run 3 |  | intact complex | 96.1%
C/C(N)=N/C(=N\S(=O)(=O)c1ccc(C(F)(F)F)cc1)N1C[C@H](c2ccccc2)C(c2ccc(Cl)cc2)=N1 |  | C57BL/6 mouse, heart | intravenous, 10 mg/kg |  | AUC(0-inf) | 25000 ng·h/mL
CNc1cc(C)c(C(N)=O)cn1 | metabolic stability | male Wistar rat, hepatocytes | 1 µM, pH 7.4 |  | hepatocyte CLint | < 1.2 µL/min/10⁶ cells
CN(Cc1ccccc1)C(=O)CN1CCN(CC(=O)[O-])CCN(CC(=O)[O-])CC1.[44Sc+3] |  | mouse, brain | intravenous, 1 h |  | tracer uptake | 0.13 %ID/g
O=C(Nc1cnccc1-c1ccc([18F])cc1)c1ccnc(NC(=O)C2CC2)c1 | ex vivo gamma counting | GSK-3β transgenic mice, late-stage, spleen | intravenous, 1.26 MBq/animal, 120 min, mean, no P-gp inhibitor |  | SUV | 0.27
O=C(NS(=O)(=O)c1cccs1)c1cc2ccccc2n1Cc1ccc(Br)c2ccccc12 |  | KM mouse, chronic hyperuricaemia model | dose not given, day 22 |  | body weight | 33 g and 39.2 g and 37.6 g and 36.2 g and 34.9 g and 36.6 g
COc1ccc2c(c1)C(C)(C)C(/C=C/C1=C(Oc3ccc(C(=O)NCCCCOc4cc(CN(Cc5ccccn5)Cc5ccccn5)cc(CN(Cc5ccccn5)Cc5ccccn5)c4)cc3)C(=C/C=C3/N(CCCCS(=O)(=O)[O-])c4ccc(OC)cc4C3(C)C)CCC1)=[N+]2CCCCS(=O)(=O)[O-].O=[N+]([O-])[O-].O=[N+]([O-])[O-].[99Tc+].[C-]#[O+].[C-]#[O+].[C-]#[O+].[Zn+2] |  | mouse, lung | 12 h |  | tracer uptake | 1.68 %ID/g
CN(Cc1ccccc1)C(=O)CN1CCN(CC(=O)N(C)Cc2ccccc2)CCN(Cc2cccc(C(=O)[O-])n2)CC1.[44Sc+3] |  | mouse, brain | intravenous, 1 h |  | tracer uptake | 0.08 %ID/g
O=C(O)CCCOc1ccc([18F])cc1-c1cc(-c2ccccc2C(F)(F)F)n(-c2ccccc2)n1 | OLINDA/EXM from mouse data, item: Lower large intestine wall | human adult |  |  | absorbed dose | 15.2 µGy/MBq
Cc1cc(Cl)cc(S(C)(=O)=NC#N)c1NC(=O)c1cc(Br)nn1-c1ncccc1Cl (stereo not drawn) | potentiometric |  |  |  | logP | 4.01
COC1C=COC2(C)Oc3c(C)c(O)c4c(c3C2=O)C2=NC3(CCN(CC(C)C)CC3)NC2=C(NC(=O)C(C)=CC=CC(C)C(O)C(C)C(O)C(C)C(OC(=O)Nc2cscn2)C1C)C4=O (stereo not drawn) |  | CD-1 mouse female, plasma | intravenous, 5 mg/kg |  | elimination half-life | 408 min
CN(Cc1ccccc1)C(=O)CN1CCN(CC(=O)[O-])CCN(Cc2cccc(C(=O)[O-])n2)CC1.[177Lu+3] |  | BALB/c mouse, urine | intravenous, 1 h |  | uptake | 151 ± 98 %ID/g
COc1cccc(OC)c1-c1cc(C(=O)NC2(C(=O)O)C3CC4CC(C3)CC2C4)nn1-c1ccc(C(=O)NCCNC(=O)[C@H](CCCCNC(=O)[C@H](CC(C)C)NC(=O)C2OC2C(=O)O)NC(=O)CN2CCN(CC(=O)[O-])CCN(CC(=O)[O-])CCN(CC(=O)[O-])CC2)cc1C(C)C.[177Lu+3] (mixture of isomers) |  | mouse, HT-29 xenograft, spleen | 4 h post injection |  | tissue uptake | 1.2 %ID/g
O=C([O-])CN1CCN(CC(=O)[O-])CCN(CC(=O)NC[C@H]2CC[C@H](C(=O)N[C@@H](Cc3ccc4ccccc4c3)C(=O)NCCCC[C@H](NC(=O)N[C@@H](CCC(=O)O)C(=O)O)C(=O)O)CC2)CCN(CC(=O)[O-])CC1.[68Ga+3] |  | ICR mouse, blood | intravenous, dose not given |  | elimination half-life | 41.8 min
C=C(NC(=O)c1csc(-c2nc3c(cc2O)-c2nc(cs2)C(=O)NC(C(C)O)C(=O)NC(=C(C)OC)c2nc(cs2)C(=O)NC2c4nc(cs4)C(=O)NC(COC(=O)c4c5c6c(cccc6n4O)COC(=O)C(OC4CC(C)(O)C(N(C)C)C(C)O4)C2OC5)c2nc-3cs2)n1)C(N)=O (stereo not drawn) |  | ICR mice, Streptococcus pneumoniae ATCC 49169 infected, immunocompromised, blood | intravenous, 32 mg/kg/day twice daily |  | Tmax | 4.8 min

Some of these lines once more:
Compound | test | system | conditions | how to read | measurement | result
CN(Cc1ccccc1)C(=O)CN1CCN(CC(=O)[O-])CCN(CC(=O)[O-])CC1.[44Sc+3] |  | mouse, brain | intravenous, 1 h |  | tracer uptake | 0.13 %ID/g
O=C(Nc1cnccc1-c1ccc([18F])cc1)c1ccnc(NC(=O)C2CC2)c1 | ex vivo gamma counting | GSK-3β transgenic mice, late-stage, spleen | intravenous, 1.26 MBq/animal, 120 min, mean, no P-gp inhibitor |  | SUV | 0.27
O=C(NS(=O)(=O)c1cccs1)c1cc2ccccc2n1Cc1ccc(Br)c2ccccc12 |  | KM mouse, chronic hyperuricaemia model | dose not given, day 22 |  | body weight | 33 g and 39.2 g and 37.6 g and 36.2 g and 34.9 g and 36.6 g
COc1ccc2c(c1)C(C)(C)C(/C=C/C1=C(Oc3ccc(C(=O)NCCCCOc4cc(CN(Cc5ccccn5)Cc5ccccn5)cc(CN(Cc5ccccn5)Cc5ccccn5)c4)cc3)C(=C/C=C3/N(CCCCS(=O)(=O)[O-])c4ccc(OC)cc4C3(C)C)CCC1)=[N+]2CCCCS(=O)(=O)[O-].O=[N+]([O-])[O-].O=[N+]([O-])[O-].[99Tc+].[C-]#[O+].[C-]#[O+].[C-]#[O+].[Zn+2] |  | mouse, lung | 12 h |  | tracer uptake | 1.68 %ID/g
